Experimental data gathered from unrelated publications.
Numbered parts are unrelated; each lists some results of a single study. Changes are numbered by the printed parent chain.

Sample 1
Target: TAR DNA-binding protein 43, full length, His tag (TARDBP, Homo sapiens, UniProt Q13148, residues 1-414)
Method: RNA Bind-n-Seq
Molecule type: RNA
Sample: in vitro
Tested at: 20 nM
Notes: 6-mer, flanks averaged, single round
Together with: 150 mM LiCl
Relative to: input library
Reading: higher = stronger binding
Quantity: 6-mer enrichment (R)
AGACGA: 0.831
GGGUAG: 1.23
ACGAGG: 0.942
UCGCAC: 0.837
CCAAAU: 0.891
GGAGUC: 0.963
CGAUAC: 0.808
UUCGGG: 0.981
UCAUCU: 0.84
AAGAAA: 0.862
CAUCCC: 0.981
UGGAGC: 1.04
AGGAUC: 0.865
UCCUUA: 0.93
ACUUUU: 1.11
AUCCGA: 0.802
AGCGUC: 0.879
GGGCUC: 0.991
ACCAAC: 0.85
AGAAAA: 0.843

Sample 2
Target: Interferon regulatory factor 3, full length, phosphomimetic (IRF3, Homo sapiens, UniProt Q14653, residues 1-427, S386D/S396D/S398D/S402D/T404D/S405D)
Sequence of UniProt Q14653 (whole entry, unmodified, looked up): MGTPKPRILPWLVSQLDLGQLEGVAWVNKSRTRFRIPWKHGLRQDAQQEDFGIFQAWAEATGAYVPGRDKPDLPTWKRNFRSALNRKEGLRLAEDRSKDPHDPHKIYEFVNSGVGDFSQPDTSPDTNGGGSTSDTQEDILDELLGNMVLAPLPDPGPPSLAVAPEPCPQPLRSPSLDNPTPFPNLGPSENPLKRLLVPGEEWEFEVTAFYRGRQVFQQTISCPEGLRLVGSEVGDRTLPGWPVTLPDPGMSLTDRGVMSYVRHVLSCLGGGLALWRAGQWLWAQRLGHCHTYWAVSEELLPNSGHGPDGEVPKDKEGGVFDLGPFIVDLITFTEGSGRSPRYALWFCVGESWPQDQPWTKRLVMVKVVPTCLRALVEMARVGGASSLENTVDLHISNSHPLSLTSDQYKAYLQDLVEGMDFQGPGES
Method: protein-binding microarray
Molecule type: double-stranded DNA, one strand shown
Sample: in vitro
Tested at: 2540 nM top
Notes: 60-bp whole probe
Together with: salmon DNA 0.4 mg/ml
Relative to: random background probes
Reading: higher = stronger binding
Quantity: fitted relative affinity
Shared flanks, not repeated: GCCTAGCAC … GTCTTGATTCGCTTGACGCTGCTG
GACGAACTGGGTATCGAGACGTGCTAG: -0.0438 z-score
TCAGCTGTTTTTCTCACCACGTGCTAG: 0.939 z-score
GACGATCTCAGTCTCAAGACGTGCTAG: 0.826 z-score
AAGACTCTCTTGTCTGGATGTGTGCTA: -0.298 z-score
TTAGGTAGCGGGTTTCGGTTAGTGCTA: 2.9 z-score
TATAGAGTAGTTTTTCAACCAGTGCTA: 0.156 z-score
TCATCTCTGCTCTTTTCAACTGTGCTA: 1.06 z-score
TTAGGTTTCTGTTCCGGTTAGTGCTAG: 6.9 z-score
TTAGACTTCAGTTCCGATTAGTGCTAG: 1.12 z-score
GACGGTTTCGGGTATGGGGACGTGCTA: 4.55 z-score
TAAGGTTTCGGGTATCGGTTAGTGCTA: 4.56 z-score
AGTATTACCTCATCTTTCCCTGTGCTA: 0.924 z-score
AGTCTCTGCAGGGAGAGAGCGTGCTAG: -0.144 z-score
TTAGTTTTCGGACTGGGTTAGTGCTAG: 2.73 z-score
TGAGCTTACAATATAAAAGGGTGCTAG: -0.0264 z-score
GTCGGTTTCGGGTTTCGGGACGTGCTA: 7.29 z-score
GACGGTCACCTTTTCCTGACGTGCTAG: 2.16 z-score
CCATACTTCCCACTGGTCTTGTGCTAG: 0.871 z-score
ACTTAAACTAGAAACTGACTTGTGCTA: 0.213 z-score

Sample 3
Target: ABI1, truncated, D143A, DHFR fusion (Arabidopsis thaliana, UniProt P49597)
Method: DHFR PCA, dose-response
Sample: yeast
Notes: Hill fit, not affinity, not high confidence
Together with: (+)-ABA, dose series
Reading: lower = more sensitive
Quantity: ABA EC50
Parent: PYL1, truncated, DHFR fusion (Arabidopsis thaliana, UniProt Q8VZS8); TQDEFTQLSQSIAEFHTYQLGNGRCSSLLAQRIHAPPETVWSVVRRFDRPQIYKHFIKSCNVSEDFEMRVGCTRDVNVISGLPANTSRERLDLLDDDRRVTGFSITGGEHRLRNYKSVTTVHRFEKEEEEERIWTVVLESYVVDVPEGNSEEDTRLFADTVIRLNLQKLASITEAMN
L164P: 824 µM
H110D: 1.07 µM
C60W: 767 µM
F103E: 4.98 µM
W41E: 21.9 µM
L169P: 1.85 µM
S87E: 328 µM
R74H: 8.63 µM
W41S: 1.95 µM
L166A: 859 µM
R74F: 4.64 µM
P50S: 294 µM
K54C: 38.6 µM
Y141L: 820 µM
W41D: 3.28 µM
L164D: 609 µM
Y115T: 8.88 µM
H110A: 96.6 µM
F157P: 4.56 µM
R74E: 15.7 µM
R46I: 106 µM

Sample 4
Target: CCNB2, cyclin fold, Cln2 fusion (human)
Method: yeast growth competition, sequencing
Sample: yeast
Notes: weak parent motif
Relative to: not given
Reading: higher = stronger binding
Quantity: normalised enrichment score
Parent: HASPIN docking peptide (human); ASLRSVLFGLMNS; partner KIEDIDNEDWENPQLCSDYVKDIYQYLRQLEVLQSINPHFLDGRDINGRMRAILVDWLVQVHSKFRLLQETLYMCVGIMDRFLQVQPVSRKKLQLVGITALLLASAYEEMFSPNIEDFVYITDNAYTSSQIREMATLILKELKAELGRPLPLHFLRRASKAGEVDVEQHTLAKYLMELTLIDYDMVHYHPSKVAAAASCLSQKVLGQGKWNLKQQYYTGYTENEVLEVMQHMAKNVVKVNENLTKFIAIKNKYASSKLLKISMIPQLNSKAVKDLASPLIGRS
R4A: -0.66
N12A: 0.85
S5A: 0.634
V6A: 0.164
M11A: 1.18
L7A: 0.109

A few entries again (sample 1):
CGAUAC: 0.808
UUCGGG: 0.981
UCAUCU: 0.84
AAGAAA: 0.862
CAUCCC: 0.981
UGGAGC: 1.04
